Published values from different studies.
Each line is one published result; not all experiments were run side by side. ± marks the error that the study gave.

CCCC[C@H](NC(=O)CNC(=O)CNC(=O)CN1CCN(CC(=O)O)CCN(CC(=O)O)CCN(CC(=O)O)CC1)C(=O)N[C@H]1CC(=O)NCCCC[C@@H](C(N)=O)NC(=O)[C@H](Cc2c[nH]c3ccccc23)NC(=O)[C@H](CCCNC(=N)N)NC(=O)[C@@H](Cc2ccccc2)NC(=O)[C@H](Cc2c[nH]cn2)NC1=O [lutetium-177 labelled]  tissue uptake (C57 mouse, female, intestines; intravenous, 0.037 MBq, 24 h): 0.47 ± 0.13 %ID
C[C@H](NC(=O)[C@H](CCC(N)=O)NC(=O)[C@H](Cc1c[nH]c2ccccc12)NC(=O)[C@@H](N)CCCNC(=N)N)C(=O)N[C@@H](CCCNC(=N)N)C(=O)N[C@@H](Cc1c[nH]c2ccccc12)C(=O)N[C@@H](CCC(N)=O)C(=O)N[C@@H](Cc1c[nH]c2ccccc12)C(=O)N[C@@H](CCCNC(=N)N)C(N)=O  viability (young human fibroblasts primary; MTT; concentration not given, 2 h, 37 °C, 5% FBS; reference: untreated cells): 100 ± 4%
COc1cc(CNC(=O)C[C@H](C)CCC=C(C)C)ccc1OCc1cn(-c2cccc(C(F)(F)F)c2)nn1  growth (NCI/ADR-RES; SRB; 10 µM, 48 h): 44%
CCc1cccc(CC)c1NC(=O)c1nn(C)c2c1CCc1cnc(Nc3ccc(N4CCN(C)CC4)cc3OC)nc1-2  IC50 ratio (HCT-116 C604Y clone B; cell proliferation; reference: C604Y clone B over parental HCT-116): 18.1
COc1cc(CNC(=O)C[C@H](C)CCC=C(C)C)ccc1OCc1cn(-c2ccc(Cl)cc2Cl)nn1  growth percent (SNB-75 CNS cancer cells; SRB; 10 µM, 48 h): 7.99%
Cc1cc2c(c(=O)o1)C=C1CCC(C(C)CNCc3ccc(O)cc3)CC1O2 (stereo not shown)  reduction of Aβ oligomers (MC65; western blot, refers to: SDS-stable Aβ dimer; concentration not given, 24 h after tetracycline withdrawal): 72%
CSc1nc(Nc2ccc(/C(C)=N/NC(=O)c3ccc([N+](=O)[O-])cc3[N+](=O)[O-])cc2)c(C#N)c(-c2ccccc2)n1  caspase-3 level (HCT-116; ELISA; concentration not given, unit not given; reference: negative control): 5.4
COc1ncccc1CN(C(=O)OCc1ccc([N+](=O)[O-])s1)[C@H]1C[C@@H]1c1ccccc1 (racemic)  selectivity ratio (THP-1 cells; colony forming unit; reference: EC50 wild type over NTR-expressing): 1 ± 1
CC(C)C[C@H](NC(=O)CNC(=O)[C@H](CC(N)=O)NC(=O)[C@@H]1CCCN1C(=O)[C@H](C)NC(=O)[C@H](C)NC(=O)[C@H](C)NC(=O)[C@H](CC(C)C)NC(=O)[C@@H](N)CC(C)C)C(=O)O  aberrant prometaphase/metaphase cells (HeLa-H2B-GFP, QQ transfected; 30 µM): 14%
O=Cc1c(O)ccc2ccccc12  log2 fold change (HUVEC; RNA sequencing, refers to: AOC2; 75 µM, 24 h; reference: DMSO): 2.63
O=C(N1CCCC1)n1cc(-c2ccc(-c3ccccc3)cc2)nn1  SILAC ratio (mouse T-cells; N-terminal labeled proteins, N-terminal enrichment proteomics, refers to: TPI1; 1 nM, 6 h; reference: DMSO): 1 ± 0.07
COc1cc2c(C=C3C(=O)Nc4ccccc43)c[nH]c2cc1C  TGI (CNS cancer subpanel of NCI-60; 48 h): 3.63 µM
CCCCN(CCCC)CC(O)COc1c2ccoc2c(OC)c2oc(CC)cc(=O)c12 (stereo not shown)  late apoptotic or necrotic cells (HTB-140; Annexin V 7-AAD; IC50, 72 h): 48.8%
CCCC[C@H](NC(=O)COCCOCCNC(=O)CN1CCN(CC(=O)O)CCN(CC(=O)O)CC1)C(=O)N[C@H]1CC(=O)NCCCC[C@@H](C(N)=O)NC(=O)[C@H](Cc2c[nH]c3ccccc23)NC(=O)[C@H](CCCNC(=N)N)NC(=O)[C@@H](Cc2ccccc2)NC(=O)[C@H](Cc2c[nH]cn2)NC1=O [copper-64 labelled]  tissue uptake (C57 mice, intestine; intravenous, 0.37 MBq, 4 h): 1.63 ± 0.26 %ID
COc1cc(CNC(=O)C[C@H](C)CCC=C(C)C)ccc1OCc1cn(-c2ccccc2Cl)nn1  growth percent (COLO 205; SRB; 10 µM, 48 h): 71.7%
COc1ccc([C@@H]2CC(=O)c3c(O)cc(O[C@@H]4O[C@H](CO[C@@H]5O[C@@H](C)[C@H](O)[C@@H](O)[C@H]5O)[C@@H](O[C@H]5O[C@H](CO)[C@@H](O)[C@H](O)[C@H]5O)[C@H](O)[C@H]4O)cc3O2)cc1O  gap closure (A549; cell migration, scratch; 150 µg/mL, 72 h): 5.99 ± 0.26%
NS(=O)(=O)c1ccc(-n2cc(Cn3c(=O)c(Cc4ccccc4)nc4ccccc43)nn2)cc1  selectivity index (HCT-116; MTT; reference: HCT-116 over normal colonocytes): 6.65
CC(Cc1ccc(Cl)cc1)=C(c1ccc(Cl)cc1)c1ccc(OCCN(C)C)cc1  GI50 (NCI-H522; cell growth or viability, SRB): 5.31 µM
COC(=O)CCNC(=O)CNC(=O)CCn1nc(Cc2ccccc2)c2ccccc2c1=O  total apoptotic cells (HCT-116; 0.32 µM, 48 h): 27.6%
COCc1nc(C(F)(F)F)[nH]c1-c1cc(C(=O)N2CC(c3ccc(C#N)cc3)C2)c(C)cc1C  inhibition (NCI-H520; α-tubulin palmitoylation, acyl-biotin exchange, refers to: palmitoyl-α-tubulin; concentration not given): 27%
C=CC(OC(C)=O)c1ccc(OC(C)=O)c(OC)c1 (stereo not shown)  IC20 (MDA-MB-231; cell growth or viability, MTT): 4 µM
COc1cc(CNC(=O)C[C@H](C)CCC=C(C)C)ccc1OCc1cn(-c2ccccc2F)nn1  growth percent (UO-31; SRB; 10 µM, 48 h): 71.9%
C=C[C@H](OC(C)=O)c1ccc(OC(C)=O)cc1  IC20 (MDA-MB-231; cell growth or viability, MTT): 2 µM
CCN(CC)CC(=O)Nc1cccc(-n2cc(-c3ccc4ccc(-c5cn(-c6cccc(NC(=O)CN(CC)CC)c6)nn5)cc4c3)nn2)c1  HIF-2α protein level (786-0 cells; Western blot; 10 x IC50, 4 h, hypoxia; reference: untreated): 37%
CC(=C(c1ccc(O)cc1)c1ccc(Cl)cc1)c1ccc(Cl)cc1  GI50 (OVCAR-4; cell growth or viability): 0.77 µM
O=C(CSc1nc2ccccc2s1)Nc1nonc1[N+](=O)[O-]  GI50 (Ramos; cell viability, CellTiter-Glo): ~7.6 µM
CC(=O)OC[C@H]1O[C@@H](Sc2sc(C(=O)c3ccc(Br)cc3)c(N)c2-c2nc3ccccc3s2)[C@H](OC(C)=O)[C@@H](OC(C)=O)[C@H]1OC(C)=O  growth (NCI-H522; SRB; 10 µM, 48 h; reference: untreated): 94.1%
COc1cc([C@@H]2c3cc4c(cc3[C@@H](OCc3cc(-c5ccc(C)cc5)no3)[C@H]3COC(=O)C23)OCO4)cc(OC)c1OC (stereo partly shown)  GI50 (MIA PaCa-2; cell growth or viability, SRB; 48 h): 3.22 µM
NS(=O)(=O)NCCc1ccccc1F  neuroprotection (rat hippocampal cultures; CFDA and PI staining; dose not given, together with: glutamate or hydrogen peroxide): inactive
CC[C@H]1[C@@H](O)[C@@H]2[C@H](CC[C@]3(C)[C@@H]([C@H](C)CCOS(=O)(=O)[O-])CC[C@@H]23)[C@@]2(C)CC[C@@H](O)C[C@@H]12.[Na+]  plasma AST (ob/ob NASH mice, plasma; oral, 3 mg/kg once daily, 8 wk): 447 ± 38.8 U/L
Cc1nn(-c2ccc(S(=O)(=O)N[C@@H](CO)CC(C)C)cc2)c2nn3nnnc3nc12  apoptotic cells (HT-29; PI/Hoechst staining; 2 µM, 24 h): 39 ± 5.7%
CC/C=C\C/C=C\C/C=C\C/C=C\C/C=C\C/C=C\CCC(=O)Nc1ccn(C2OC(CO)C(O)C2(F)F)c(=O)n1 (stereo not shown)  TGI (Malme-3M; NCI60 screen): 22.8 µM
COc1ccc(NC(=O)N/N=C2\CC3(CCN(C)CC3)Oc3ccccc32)cc1  apoptotic cells (HCT-116; annexin V-FITC/PI; concentration not given, 24 h, Late apoptosis): 16.3%
COc1cc(CNC(=O)C[C@H](C)CCC=C(C)C)ccc1OCc1cn(-c2ccc(Br)cc2)nn1  growth percent (SK-MEL-28 melanoma cells; SRB; 10 µM, 48 h): 96.5%
CS(C)=O.CS(C)=O.[Cl][Cu][Cl].c1ccc(-c2nnc(-c3ccc4c(c3)OCO4)[nH]2)nc1  protein level (T24; western blot, refers to: Bcl-2; 1.8 and 3.5 µM, 24 h): decreased
O=C1OCC2=C1C(c1cccc(Br)c1)C1=C(N2)C(=O)c2ccccc2C1=O (stereo not shown)  late apoptotic cells (SK-LU-1 cells; annexin V/PI; 0.32 µM, 24 h): 7.1%
COc1ccc2nc3ccc(OC)cc3c(SCCCN)c2c1  proteasome activity (primary CD138+ myeloma cells; human; 10 µM, 2 h): decreased
CCOC(=O)CCCCC[C@@H]1NC(=O)[C@H]2CCCN2C(=O)[C@H](Cc2ccccc2)NC(=O)[C@H](Cc2ccccc2)NC1=O  intracellular PGRN level (iPSC-derived NPCs; ELISA, refers to: progranulin; 1 µM, 18 h): no effect
NS(=O)(=O)c1ccc(NC(=O)NN[C@@H]2O[C@H](CO)[C@@H](O)[C@H](O)[C@H]2O)cc1  hemolysis (rabbit erythrocytes; 32 µg/mL, 3 h; reference: complete lysis): 0%
COc1ccc([C@@H]2CC(=O)c3c(O)cc(O[C@@H]4O[C@H](CO[C@@H]5O[C@@H](C)[C@H](O)[C@@H](O)[C@H]5O)[C@@H](O)[C@H](O)[C@H]4O)cc3O2)cc1O  gap closure (A549; cell migration, scratch; 100 µg/mL, 72 h): 12.4 ± 0.48%
CCOC(=O)C1NC(c2ccc[n+](C)c2)C23c4c5c6c7c8c9c(c%10c%11c2c2c4c4c%12c5c5c6c6c8c8c%13c9c9c%10c%10c%11c%11c2c2c4c4c%12c%12c5c5c6c8c6c8c%13c9c9c%10c%10c%11c2c2c4c4c%12c5c6c5c8c9c%10c2c45)C713 (stereo not shown)  CC50 (BC-3; cell growth or viability; 24 h): 9.6 µM
CC(=O)OC[C@H]1O[C@@H](Sc2sc(C(=O)c3ccc(C)cc3)c(N)c2-c2nc3ccccc3s2)[C@H](OC(C)=O)[C@@H](OC(C)=O)[C@@H]1OC(C)=O  growth (OVCAR-4; SRB; 10 µM, 48 h; reference: untreated): -13.9%
C=CC(OC(C)=O)c1cc(OC)cc(OC)c1 (stereo not shown)  IC20 (MDA-MB-231; cell growth or viability, MTT): 28 µM
Cc1c(C)c(C)[c-](C)c1C.[C-]#[O+].[C-]#[O+].[C-]#[O+].[Cl-].[Cl-].[Cl-].[Ir+3].[Re+].c1cnc(-c2ncccn2)nc1  ROS-positive cells (MDA-MB-468; DCFDA flow cytometry; 50 µM): 73%
Cc1cc(-c2ccc(NC(=O)[C@H](CCCCNC(=O)CCOCCOCCC(=O)N[C@H](Cc3ccccc3)C(=O)N[C@H]3CSSC[C@@H](C(=O)N[C@H](C(=O)O)[C@@H](C)O)NC(=O)[C@H]([C@@H](C)O)NC(=O)[C@H](CCCCN)NC(=O)[C@@H](Cc4c[nH]c5ccccc45)NC(=O)[C@H](Cc4ccc(O)cc4)NC3=O)NC(=O)CN3CCN(CC(=O)O)CCN(CC(=O)O)CCN(CC(=O)O)CC3)c(C)c2)ccc1N=Nc1ccc2c(S(=O)(=O)O)cc(S(=O)(=O)O)c(N)c2c1O [gallium-68 labelled]  tumour-to-tissue uptake ratio (micro-PET; male BALB/c nude mouse, AR42J xenograft, tumour and muscle; intravenous, 7.4 MBq, 4 h; reference: tumour over muscle): 9.81 ± 0.32
C[C@H](N)C(=O)N[C@@H](Cc1c[nH]c2ccccc12)C(=O)N[C@@H](CCC(N)=O)C(=O)N[C@@H](Cc1c[nH]c2ccccc12)C(=O)N[C@@H](CCCNC(=N)N)C(=O)N[C@@H](Cc1c[nH]c2ccccc12)C(=O)N[C@@H](CCC(N)=O)C(=O)N[C@@H](Cc1c[nH]c2ccccc12)C(=O)N[C@@H](CCCNC(=N)N)C(N)=O  viability (young human fibroblasts primary; MTT; concentration not given, 48 h, 37 °C, 5% FBS; reference: untreated cells): 92 ± 2%

Some of these lines once more:
Cc1cc2c(c(=O)o1)C=C1CCC(C(C)CNCc3ccc(O)cc3)CC1O2 (stereo not shown)  reduction of Aβ oligomers (MC65; western blot, refers to: SDS-stable Aβ dimer; concentration not given, 24 h after tetracycline withdrawal): 72%
CCCC[C@H](NC(=O)COCCOCCNC(=O)CN1CCN(CC(=O)O)CCN(CC(=O)O)CC1)C(=O)N[C@H]1CC(=O)NCCCC[C@@H](C(N)=O)NC(=O)[C@H](Cc2c[nH]c3ccccc23)NC(=O)[C@H](CCCNC(=N)N)NC(=O)[C@@H](Cc2ccccc2)NC(=O)[C@H](Cc2c[nH]cn2)NC1=O [copper-64 labelled]  tissue uptake (C57 mice, intestine; intravenous, 0.37 MBq, 4 h): 1.63 ± 0.26 %ID
Cc1cc(-c2ccc(NC(=O)[C@H](CCCCNC(=O)CCOCCOCCC(=O)N[C@H](Cc3ccccc3)C(=O)N[C@H]3CSSC[C@@H](C(=O)N[C@H](C(=O)O)[C@@H](C)O)NC(=O)[C@H]([C@@H](C)O)NC(=O)[C@H](CCCCN)NC(=O)[C@@H](Cc4c[nH]c5ccccc45)NC(=O)[C@H](Cc4ccc(O)cc4)NC3=O)NC(=O)CN3CCN(CC(=O)O)CCN(CC(=O)O)CCN(CC(=O)O)CC3)c(C)c2)ccc1N=Nc1ccc2c(S(=O)(=O)O)cc(S(=O)(=O)O)c(N)c2c1O [gallium-68 labelled]  tumour-to-tissue uptake ratio (micro-PET; male BALB/c nude mouse, AR42J xenograft, tumour and muscle; intravenous, 7.4 MBq, 4 h; reference: tumour over muscle): 9.81 ± 0.32
CC(C)C[C@H](NC(=O)CNC(=O)[C@H](CC(N)=O)NC(=O)[C@@H]1CCCN1C(=O)[C@H](C)NC(=O)[C@H](C)NC(=O)[C@H](C)NC(=O)[C@H](CC(C)C)NC(=O)[C@@H](N)CC(C)C)C(=O)O  aberrant prometaphase/metaphase cells (HeLa-H2B-GFP, QQ transfected; 30 µM): 14%
CC(=O)OC[C@H]1O[C@@H](Sc2sc(C(=O)c3ccc(Br)cc3)c(N)c2-c2nc3ccccc3s2)[C@H](OC(C)=O)[C@@H](OC(C)=O)[C@H]1OC(C)=O  growth (NCI-H522; SRB; 10 µM, 48 h; reference: untreated): 94.1%
CCN(CC)CC(=O)Nc1cccc(-n2cc(-c3ccc4ccc(-c5cn(-c6cccc(NC(=O)CN(CC)CC)c6)nn5)cc4c3)nn2)c1  HIF-2α protein level (786-0 cells; Western blot; 10 x IC50, 4 h, hypoxia; reference: untreated): 37%
